{"data": "Published values pooled from the literature", "note": "Parts stem from different laboratories: compare values within a part only.", "UniProt P10721, sequence (whole entry, unmodified, looked up)": "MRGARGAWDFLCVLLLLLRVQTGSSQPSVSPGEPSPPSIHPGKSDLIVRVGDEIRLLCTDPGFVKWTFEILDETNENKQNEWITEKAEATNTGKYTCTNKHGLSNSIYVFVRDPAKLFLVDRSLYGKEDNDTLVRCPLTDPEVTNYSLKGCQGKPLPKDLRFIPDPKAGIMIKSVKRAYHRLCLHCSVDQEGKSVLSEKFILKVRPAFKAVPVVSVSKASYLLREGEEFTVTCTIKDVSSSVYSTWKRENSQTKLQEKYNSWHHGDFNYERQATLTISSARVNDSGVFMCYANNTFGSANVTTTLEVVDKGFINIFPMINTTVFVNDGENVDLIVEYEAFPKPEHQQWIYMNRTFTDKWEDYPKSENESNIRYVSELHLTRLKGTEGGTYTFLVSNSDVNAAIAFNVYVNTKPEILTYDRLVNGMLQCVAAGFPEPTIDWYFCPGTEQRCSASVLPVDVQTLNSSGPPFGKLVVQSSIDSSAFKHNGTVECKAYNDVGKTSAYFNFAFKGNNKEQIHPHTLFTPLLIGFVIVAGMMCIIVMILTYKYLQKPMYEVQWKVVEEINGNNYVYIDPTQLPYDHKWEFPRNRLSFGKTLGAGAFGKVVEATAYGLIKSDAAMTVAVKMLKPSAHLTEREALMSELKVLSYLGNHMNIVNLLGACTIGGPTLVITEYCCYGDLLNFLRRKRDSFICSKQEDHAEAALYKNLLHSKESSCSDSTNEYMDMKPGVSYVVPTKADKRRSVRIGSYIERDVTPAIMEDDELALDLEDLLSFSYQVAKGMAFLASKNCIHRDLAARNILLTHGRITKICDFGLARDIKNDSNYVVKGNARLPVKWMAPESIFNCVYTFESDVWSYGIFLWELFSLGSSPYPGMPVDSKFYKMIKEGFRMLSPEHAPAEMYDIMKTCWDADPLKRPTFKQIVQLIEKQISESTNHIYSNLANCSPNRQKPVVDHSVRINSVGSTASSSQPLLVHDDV", "UniProt Q96Q40, sequence (whole entry, looked up)": "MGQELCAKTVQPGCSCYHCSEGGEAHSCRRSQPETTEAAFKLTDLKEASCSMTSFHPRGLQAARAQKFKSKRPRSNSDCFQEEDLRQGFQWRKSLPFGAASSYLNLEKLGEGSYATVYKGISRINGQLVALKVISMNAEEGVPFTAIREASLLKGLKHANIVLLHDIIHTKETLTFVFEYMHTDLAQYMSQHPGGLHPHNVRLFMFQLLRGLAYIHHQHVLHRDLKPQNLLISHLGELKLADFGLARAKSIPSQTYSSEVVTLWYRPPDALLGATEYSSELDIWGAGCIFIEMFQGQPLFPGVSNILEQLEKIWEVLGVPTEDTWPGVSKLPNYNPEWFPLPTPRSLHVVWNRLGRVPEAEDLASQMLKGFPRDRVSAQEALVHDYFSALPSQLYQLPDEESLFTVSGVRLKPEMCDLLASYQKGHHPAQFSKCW", "UniProt P35968, sequence (whole entry, looked up)": "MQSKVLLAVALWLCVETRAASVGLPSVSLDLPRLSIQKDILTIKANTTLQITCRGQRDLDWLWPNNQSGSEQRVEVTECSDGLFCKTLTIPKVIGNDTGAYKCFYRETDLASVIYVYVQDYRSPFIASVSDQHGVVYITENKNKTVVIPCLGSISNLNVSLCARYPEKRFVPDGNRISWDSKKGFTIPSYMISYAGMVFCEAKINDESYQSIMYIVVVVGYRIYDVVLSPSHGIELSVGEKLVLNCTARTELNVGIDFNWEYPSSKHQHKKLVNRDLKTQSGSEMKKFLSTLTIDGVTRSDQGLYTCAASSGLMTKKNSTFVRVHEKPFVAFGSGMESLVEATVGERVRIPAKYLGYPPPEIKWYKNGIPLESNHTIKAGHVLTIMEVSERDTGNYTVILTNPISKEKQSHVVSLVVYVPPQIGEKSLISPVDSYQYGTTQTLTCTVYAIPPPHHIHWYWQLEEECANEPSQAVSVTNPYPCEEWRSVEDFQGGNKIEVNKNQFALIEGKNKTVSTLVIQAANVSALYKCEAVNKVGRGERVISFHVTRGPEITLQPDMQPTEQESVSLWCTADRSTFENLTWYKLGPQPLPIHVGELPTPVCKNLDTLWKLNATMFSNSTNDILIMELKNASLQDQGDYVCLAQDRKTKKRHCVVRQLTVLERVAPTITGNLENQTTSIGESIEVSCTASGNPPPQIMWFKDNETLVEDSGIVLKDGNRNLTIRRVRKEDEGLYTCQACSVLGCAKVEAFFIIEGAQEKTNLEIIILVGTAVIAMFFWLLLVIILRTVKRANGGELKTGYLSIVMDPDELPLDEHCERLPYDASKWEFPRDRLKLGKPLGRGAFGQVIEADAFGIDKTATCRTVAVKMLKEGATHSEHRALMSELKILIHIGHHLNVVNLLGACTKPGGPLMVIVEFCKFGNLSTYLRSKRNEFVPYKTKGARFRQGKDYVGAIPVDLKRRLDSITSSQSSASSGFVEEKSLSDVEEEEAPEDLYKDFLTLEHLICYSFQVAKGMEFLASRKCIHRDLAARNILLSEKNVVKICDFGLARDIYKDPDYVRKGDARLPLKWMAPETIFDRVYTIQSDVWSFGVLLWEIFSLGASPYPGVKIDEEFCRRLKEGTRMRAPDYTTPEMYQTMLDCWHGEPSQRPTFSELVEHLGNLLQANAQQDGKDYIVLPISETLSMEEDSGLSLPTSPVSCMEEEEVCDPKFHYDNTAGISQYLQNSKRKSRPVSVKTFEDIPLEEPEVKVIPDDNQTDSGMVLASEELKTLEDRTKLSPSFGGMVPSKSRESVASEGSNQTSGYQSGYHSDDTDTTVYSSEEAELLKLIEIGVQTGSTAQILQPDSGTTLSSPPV", "UniProt O75116, sequence (whole entry, looked up)": "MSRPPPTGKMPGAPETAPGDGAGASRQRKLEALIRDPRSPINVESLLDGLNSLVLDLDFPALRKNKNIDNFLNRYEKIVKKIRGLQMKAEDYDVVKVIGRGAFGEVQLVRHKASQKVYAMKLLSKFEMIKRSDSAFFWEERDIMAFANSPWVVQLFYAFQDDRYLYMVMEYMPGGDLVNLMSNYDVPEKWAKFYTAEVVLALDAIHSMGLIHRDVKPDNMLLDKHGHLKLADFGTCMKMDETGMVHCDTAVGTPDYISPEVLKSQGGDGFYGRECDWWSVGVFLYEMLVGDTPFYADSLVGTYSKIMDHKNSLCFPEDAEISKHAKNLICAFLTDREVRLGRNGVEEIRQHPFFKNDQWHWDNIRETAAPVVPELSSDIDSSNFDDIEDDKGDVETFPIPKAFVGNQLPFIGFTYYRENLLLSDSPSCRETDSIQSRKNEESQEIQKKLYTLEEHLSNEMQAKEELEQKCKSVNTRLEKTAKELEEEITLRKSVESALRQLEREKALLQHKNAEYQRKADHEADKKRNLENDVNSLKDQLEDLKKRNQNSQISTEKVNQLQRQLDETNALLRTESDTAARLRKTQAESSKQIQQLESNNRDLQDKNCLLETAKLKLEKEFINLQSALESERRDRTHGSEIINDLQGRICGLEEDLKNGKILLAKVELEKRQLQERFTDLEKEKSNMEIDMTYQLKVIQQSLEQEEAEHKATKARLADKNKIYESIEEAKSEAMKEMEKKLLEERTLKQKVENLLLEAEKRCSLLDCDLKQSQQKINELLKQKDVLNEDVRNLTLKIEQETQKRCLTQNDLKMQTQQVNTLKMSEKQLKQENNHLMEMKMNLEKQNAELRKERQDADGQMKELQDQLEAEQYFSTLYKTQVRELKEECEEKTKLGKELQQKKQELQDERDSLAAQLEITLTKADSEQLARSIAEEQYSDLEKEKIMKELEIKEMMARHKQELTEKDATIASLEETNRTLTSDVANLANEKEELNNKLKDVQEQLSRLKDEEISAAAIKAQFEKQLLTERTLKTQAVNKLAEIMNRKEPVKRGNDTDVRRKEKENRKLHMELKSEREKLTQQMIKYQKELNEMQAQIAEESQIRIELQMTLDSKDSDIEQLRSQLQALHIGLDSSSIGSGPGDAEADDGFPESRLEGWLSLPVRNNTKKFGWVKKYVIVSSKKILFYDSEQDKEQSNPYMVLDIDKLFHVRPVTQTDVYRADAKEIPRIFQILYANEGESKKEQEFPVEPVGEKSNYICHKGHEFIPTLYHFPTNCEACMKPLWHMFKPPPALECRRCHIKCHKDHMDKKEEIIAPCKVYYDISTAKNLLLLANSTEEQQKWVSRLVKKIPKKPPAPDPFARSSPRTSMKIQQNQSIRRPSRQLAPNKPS"}
{"data": "Study 1", "SMILES": "COc1cc(C(=O)N2CCC(N3CCN(C)CC3)CC2)ccc1Nc1ncc2c(n1)N(C)c1ccccc1C(=O)N2C"}
{"tested on": "PKCe (mouse)", "assay": "probe labelling, KiNativ, item: LYS1 site peptide", "system": "brain tissue lysate (mouse)", "setting": "0.1 µM, with: ATP acyl-phosphate probe", "inhibition [%]": 8.7}
{"tested on": "EGFR (mouse)", "assay": "probe labelling, KiNativ, item: IPVAIkELR peptide, LYS1 site", "system": "brain tissue lysate (mouse)", "setting": "1 µM, with: ADP acyl-phosphate probe", "inhibition [%]": -7.7}
{"tested on": "human PBMC", "assay": "probe labeling, inhibitor, KiNativ profiling, item: DTGHVYAMkILR", "system": "cell lysate", "setting": "concentration not given, LYS1 site, with: ATP acyl-phosphate probe", "inhibition [%]": 14.6}
{"tested on": "FER human", "assay": "KiNativ profiling", "system": "human PBMC", "setting": "concentration not given, activation loop site, with: ATP acyl phosphate probe", "inhibition [%]": 9.8}
{"tested on": "MAP2K4 (mouse)", "assay": "probe labelling, KiNativ, item: DIkPSNILLDR peptide, LYS2 site", "system": "brain tissue lysate (mouse)", "setting": "1 µM, with: ATP acyl-phosphate probe", "inhibition [%]": -11.5}
{"tested on": "FYN (human)", "assay": "probe labelling, KiNativ ADP probe", "system": "human PBMC lysate", "setting": "concentration not given, LYS1 labelled site", "inhibition [%]": -4.7}
{"tested on": "human PBMC", "assay": "probe labeling, inhibitor, KiNativ profiling", "system": "cell lysate", "setting": "concentration not given, domain 1, LYS2 site, with: ADP acyl-phosphate probe 1 µM", "inhibition [%]": -1.4}
{"tested on": "BRSK2 (mouse)", "assay": "probe labelling, KiNativ ADP probe", "system": "mouse brain lysate", "setting": "1 µM, LYS2 labelled site", "inhibition [%]": -14.7}
{"tested on": "PI4KB mouse", "assay": "KiNativ profiling", "system": "mouse brain lysate", "setting": "1 µM, ATP site, with: ADP acyl phosphate probe", "inhibition [%]": -0.1}
{"tested on": "NIM1 (mouse)", "assay": "probe labelling, KiNativ ADP probe", "system": "mouse brain lysate", "setting": "1 µM, LYS1 labelled site", "inhibition [%]": 1.3}
{"data": "Study 2", "target": "Tyrosine-protein kinase Fer (FER, Homo sapiens, UniProt P16591)", "effect on": "enzyme activity", "mode": "inhibitor", "tested at": "0.5 µM", "reference": "control", "UniProt P16591, sequence (whole entry, looked up)": "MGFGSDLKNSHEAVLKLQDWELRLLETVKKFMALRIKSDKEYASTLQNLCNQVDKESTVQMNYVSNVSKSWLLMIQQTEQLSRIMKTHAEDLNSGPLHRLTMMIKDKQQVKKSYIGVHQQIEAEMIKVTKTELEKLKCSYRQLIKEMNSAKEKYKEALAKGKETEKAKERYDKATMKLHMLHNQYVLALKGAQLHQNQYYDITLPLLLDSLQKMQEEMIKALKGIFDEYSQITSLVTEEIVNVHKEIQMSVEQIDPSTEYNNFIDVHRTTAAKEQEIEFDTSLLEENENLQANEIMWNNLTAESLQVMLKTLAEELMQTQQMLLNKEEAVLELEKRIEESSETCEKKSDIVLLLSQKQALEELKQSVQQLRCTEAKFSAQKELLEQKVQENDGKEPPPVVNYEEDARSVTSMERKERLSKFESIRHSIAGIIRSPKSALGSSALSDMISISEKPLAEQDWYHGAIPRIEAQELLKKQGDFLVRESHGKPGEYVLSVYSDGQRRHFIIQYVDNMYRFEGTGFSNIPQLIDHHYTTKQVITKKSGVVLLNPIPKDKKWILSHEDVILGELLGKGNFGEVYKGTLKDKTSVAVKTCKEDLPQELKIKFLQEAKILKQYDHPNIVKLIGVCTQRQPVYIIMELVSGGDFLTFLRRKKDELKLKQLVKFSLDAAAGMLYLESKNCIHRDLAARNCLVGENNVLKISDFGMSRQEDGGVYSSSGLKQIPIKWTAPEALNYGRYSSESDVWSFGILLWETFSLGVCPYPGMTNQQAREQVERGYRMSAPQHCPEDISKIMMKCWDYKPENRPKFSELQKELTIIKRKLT"}
{"SMILES": "O=C(c1cc2cc(O)ccc2[nH]1)c1cc2cc(O)ccc2[nH]1", "remaining activity [%]": 86.5}
{"SMILES": "O=c1cc(N2CCOCC2)oc2c(-c3ccccc3)cccc12", "remaining activity [%]": 99.9}
{"SMILES": "Cc1cc(Nc2cc(N3CCN(C)CC3)nc(Sc3ccc(NC(=O)C4CC4)cc3)n2)[nH]n1", "remaining activity [%]": 92.2}
{"SMILES": "COc1cccc(-c2cc(=O)c3ccccc3o2)c1N", "remaining activity [%]": 97.6}
{"SMILES": "c1ccc(-c2n[nH]c3c2oc2ccccc23)cc1", "remaining activity [%]": 103}
{"SMILES": "O=C1NC(=O)c2c1c1c3ccccc3[nH]c1n1cncc21", "remaining activity [%]": 47.9}
{"SMILES": "Cc1ccc(S(=O)(=O)/C=C/C#N)cc1", "remaining activity [%]": 104}
{"SMILES": "c1ccc2c(-c3ccncc3)c[nH]c2c1", "remaining activity [%]": 91.6}
{"SMILES": "COc1ccc2c(c1)c(C1=C(c3c[nH]c4ccccc34)C(=O)NC1=O)cn2CCCN(C)C", "remaining activity [%]": 70.9}
{"SMILES": "CCCNC(=O)Nc1ccc(Oc2ncnc3cc(OC)c(OC)cc23)cc1Cl", "remaining activity [%]": 74.1}
{"SMILES": "N#Cc1cnc2cnc(NCc3cccnc3)cc2c1Nc1ccc(F)c(Cl)c1", "remaining activity [%]": 82.9}
{"SMILES": "Oc1cccc(-c2nc(N3CCOCC3)c3oc4ncccc4c3n2)c1", "remaining activity [%]": 97.8}
{"SMILES": "O=C1NC(=O)c2c1c1c3ccccc3[nH]c1c1[nH]c3cc(Br)ccc3c21", "remaining activity [%]": 88.9}
{"SMILES": "CN(C)S(=O)(=O)c1ccc2c(c1)/C(=C/c1cc3c([nH]1)CCCC3)C(=O)N2", "remaining activity [%]": 51.8}
{"SMILES": "O=C1Cc2c([nH]c3ccc(Br)cc23)-c2ccccc2N1", "remaining activity [%]": 89.7}
{"SMILES": "CN1CCN(c2ccc3nc(-c4c(N)c5c(F)cccc5[nH]c4=O)[nH]c3c2)CC1", "remaining activity [%]": 94.6}
{"SMILES": "O=C1Nc2ccccc2/C1=C\\c1c(Cl)[nH]c2ccccc12", "remaining activity [%]": 91.8}
{"SMILES": "O=C1Nc2ccc(Br)cc2/C1=C/c1cc2c([nH]1)CCCC2", "remaining activity [%]": 74.7}
{"SMILES": "O=Nc1c(-c2c(O)[nH]c3cc(Br)ccc23)[nH]c2ccccc12", "remaining activity [%]": 69.8}
{"data": "Study 3", "SMILES": "CN([C@@H]1CCc2c(CC(=O)O)c3cc(S(C)(=O)=O)ccc3n2C1)S(=O)(=O)c1ccc(F)cc1", "effect on": "cell-free assay", "technique": "competition with immobilised ligand", "tested at": "1 µM"}
{"target": "Mast/stem cell growth factor receptor Kit (KIT, Homo sapiens, UniProt P10721, D816H)", "remaining binding": "97%"}
{"target": "Receptor-type tyrosine-protein kinase FLT3 (FLT3, Homo sapiens, UniProt P36888, K663Q)", "remaining binding": "100%"}
{"target": "Cyclin-dependent kinase 15 (CDK15, Homo sapiens, UniProt Q96Q40)", "remaining binding": "84%"}
{"target": "Activin receptor type-2A (ACVR2A, Homo sapiens, UniProt P27037)", "remaining binding": "100%"}
{"target": "Serine/threonine-protein kinase 38-like (STK38L, Homo sapiens, UniProt Q9Y2H1)", "remaining binding": "88%"}
{"target": "Serine/threonine-protein kinase DCLK2 (DCLK2, Homo sapiens, UniProt Q8N568)", "remaining binding": "100%"}
{"target": "Cyclin-G-associated kinase (GAK, Homo sapiens, UniProt O14976)", "remaining binding": "93%"}
{"target": "Serine/threonine-protein kinase Nek4 (NEK4, Homo sapiens, UniProt P51957)", "remaining binding": "91%"}
{"target": "Phosphatidylinositol 3-kinase catalytic subunit type 3 (PIK3C3, Homo sapiens, UniProt Q8NEB9)", "remaining binding": "100%"}
{"target": "Tyrosine-protein kinase Tec (TEC, Homo sapiens, UniProt P42680)", "remaining binding": "100%"}
{"target": "Interleukin-1 receptor-associated kinase 3 (IRAK3, Homo sapiens, UniProt Q9Y616)", "remaining binding": "100%"}
{"target": "Cyclin-dependent kinase 4, with cyclin D3 (CDK4, Homo sapiens, UniProt P11802)", "remaining binding": "93%"}
{"target": "Rho-associated protein kinase 2 (ROCK2, Homo sapiens, UniProt O75116)", "remaining binding": "100%"}
{"target": "Bone morphogenetic protein receptor type-1A (BMPR1A, Homo sapiens, UniProt P36894)", "remaining binding": "85%"}
{"target": "Vascular endothelial growth factor receptor 2 (KDR, Homo sapiens, UniProt P35968)", "remaining binding": "85%"}
{"target": "Calcium/calmodulin-dependent protein kinase type II subunit delta (CAMK2D, Homo sapiens, UniProt Q13557)", "remaining binding": "100%"}
{"target": "Phosphatidylinositol 5-phosphate 4-kinase type-2 beta (PIP4K2B, Homo sapiens, UniProt P78356)", "remaining binding": "59%"}
{"data": "Study 4", "target": "Bromodomain-containing protein 4, BD1 (BRD4, Homo sapiens, UniProt O60885)", "tested at": "50 µM"}
{"SMILES": "Nc1cc(C(F)(F)F)c(-c2cc(N3CCOCC3)nc(N3CCOCC3)n2)cn1", "inhibition [%]": 24.9}
{"SMILES": "Cc1cc(Nc2cc(N3CCN(C)CC3)nc(Sc3ccc(NC(=O)C4CC4)cc3)n2)[nH]n1", "inhibition [%]": 35.9}
{"SMILES": "Cc1nc(Nc2ncc(C(=O)Nc3c(C)cccc3Cl)s2)cc(N2CCN(CCO)CC2)n1", "inhibition [%]": 16.6}
{"SMILES": "COc1ccc(-c2ccc3c(N4CCOC[C@@H]4C)nc(N4CCOC[C@@H]4C)nc3n2)cc1CO", "inhibition [%]": -48}
{"SMILES": "Nc1ncnc2c1c(COc1cccc(Cl)c1)nn2C1CCOCC1", "inhibition [%]": 5.6}
{"SMILES": "CC(C)n1nc(-c2ccc3oc(N)nc3c2)c2c(N)ncnc21", "inhibition [%]": -0.8}
{"note": "Some of these lines once more (study 1):"}
{"tested on": "human PBMC", "assay": "probe labeling, inhibitor, KiNativ profiling, item: DTGHVYAMkILR", "system": "cell lysate", "setting": "concentration not given, LYS1 site, with: ATP acyl-phosphate probe", "inhibition [%]": 14.6}
{"tested on": "FER human", "assay": "KiNativ profiling", "system": "human PBMC", "setting": "concentration not given, activation loop site, with: ATP acyl phosphate probe", "inhibition [%]": 9.8}
{"tested on": "MAP2K4 (mouse)", "assay": "probe labelling, KiNativ, item: DIkPSNILLDR peptide, LYS2 site", "system": "brain tissue lysate (mouse)", "setting": "1 µM, with: ATP acyl-phosphate probe", "inhibition [%]": -11.5}
{"tested on": "FYN (human)", "assay": "probe labelling, KiNativ ADP probe", "system": "human PBMC lysate", "setting": "concentration not given, LYS1 labelled site", "inhibition [%]": -4.7}
{"tested on": "human PBMC", "assay": "probe labeling, inhibitor, KiNativ profiling", "system": "cell lysate", "setting": "concentration not given, domain 1, LYS2 site, with: ADP acyl-phosphate probe 1 µM", "inhibition [%]": -1.4}
{"tested on": "BRSK2 (mouse)", "assay": "probe labelling, KiNativ ADP probe", "system": "mouse brain lysate", "setting": "1 µM, LYS2 labelled site", "inhibition [%]": -14.7}
{"tested on": "PI4KB mouse", "assay": "KiNativ profiling", "system": "mouse brain lysate", "setting": "1 µM, ATP site, with: ADP acyl phosphate probe", "inhibition [%]": -0.1}
{"tested on": "NIM1 (mouse)", "assay": "probe labelling, KiNativ ADP probe", "system": "mouse brain lysate", "setting": "1 µM, LYS1 labelled site", "inhibition [%]": 1.3}
